Assay results from different studies.
Numbered parts are unrelated; each lists some results of a single study.

Series 1 — technique: RNA Bind-n-Seq; molecule type: RNA; matrix: in vitro; tested at: 365 nM; reference: no-protein control; reading: higher = stronger binding
Target: RNA binding protein fox-1 homolog 2, RRM domain, GST-SBP tag (RBFOX2, Homo sapiens, UniProt O43251-10, residues 100-194)
Setting: natural RNA segment, single round, ends assumed
Shared flanks, not repeated: GGGAGUUCUACAGUCCGACGAUC … UGGAAUUCUCGGGUGCCAA
Target sequence (chain): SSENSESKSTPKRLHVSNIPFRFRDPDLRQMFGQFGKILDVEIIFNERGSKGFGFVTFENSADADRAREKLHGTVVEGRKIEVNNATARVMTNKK
Strand | RBNS enrichment (R)
AUUCUGCAUGAAUCCUGUGGCUGUCUUAUUUUAAAUAGCUGCUGCUGUGGGAUUAUAUUUUUUUUCCUUAACAUGCCAAAUAUAACUUUCUGAAAGUGAUGGAAAAUGUU | 1.84
CUGUGGCCCUGAUUUGUUCAGAGCCCAUUCUCCCUUGCCUCCCCUUUUGAGACUGGAGCCAACCCUUUUGGAGAGAGGACCUGCCCACCUUUGAGAUCAGCAGGGGGCUC | 0.552
AACCGUAUAUUAAUCGCCAGUGUUUAAAACUGGUUUAUCAGAAUUUAUAUUUUUGUCUCUCCUGCCUUUUGAAUUUUACUUAUGACAGAGAAAGUAUUGAGCCAUGACUU | 0.512
GGAUGGGAGUCAGACUGGCUGAGGUUUCAAUUUUGCAUUCAUGGCCAGCCACCGUUCCAGGUCCUGUUGAGAUCAUCAUGUAACAGGACAACAAAGUCCCUGUCCUCAUG | 0.359
CUCGAUGGACGAUCUCAGCCUUGAGCCCCACGAGGAGCUUGCUUGCUGGGCUCAUCCUGUCUCCCCUGACAACUGUGACUUCUCCUGGAGAGGCCUGUGCACUGCUGAAG | 0.453
UGGAGCGGUGGGGACGUCAGCAGGAAACGCCAGUGCUUUGCUGCCUGAUUGACAGGAAUUUGCUGUCCUUGACACUCCACACAUUGUGUUCCUCACGUGUGGGACAGGAC | 0.437
UCCUCCGUCCAGCCGCCAUUGCCACCAGGAGAACCACUACAUGCAGCCCAUGCCCACCUGCCCAUCACAGGGUUGGGCCCAGAUCUGGUCCCUUGCAGCUAGUUUUCUAG | 0.418
AUGAGCUCUGUUUCAACUAACGUGUCAUCUUGUAUUUCUUUCAAGGAAACCAAUUAGAUUCAAAUGUAGGAUAUUACAGGUUGGUUGAAAUCCCAUGUACAAAUAAAAUU | 0.263

Series 2 — technique: EMSA with sequencing; molecule type: double-stranded DNA, one strand shown; matrix: in vitro; tested at: 10 and 20 nM; reference: negative control set to 0; reading: higher = stronger binding
Target: Hepatocyte nuclear factor 3-alpha (Foxa1, Mus musculus, UniProt P35582, residues 1-468, full length assumed)
Setting: whole designed probe, mean of two concentrations, ends assumed
Shared flanks, not repeated: GTGAGCGGTGCCCATTGATGGGGAAC … TTTCACTGGGATCGTGGGGAC
Construct (chain): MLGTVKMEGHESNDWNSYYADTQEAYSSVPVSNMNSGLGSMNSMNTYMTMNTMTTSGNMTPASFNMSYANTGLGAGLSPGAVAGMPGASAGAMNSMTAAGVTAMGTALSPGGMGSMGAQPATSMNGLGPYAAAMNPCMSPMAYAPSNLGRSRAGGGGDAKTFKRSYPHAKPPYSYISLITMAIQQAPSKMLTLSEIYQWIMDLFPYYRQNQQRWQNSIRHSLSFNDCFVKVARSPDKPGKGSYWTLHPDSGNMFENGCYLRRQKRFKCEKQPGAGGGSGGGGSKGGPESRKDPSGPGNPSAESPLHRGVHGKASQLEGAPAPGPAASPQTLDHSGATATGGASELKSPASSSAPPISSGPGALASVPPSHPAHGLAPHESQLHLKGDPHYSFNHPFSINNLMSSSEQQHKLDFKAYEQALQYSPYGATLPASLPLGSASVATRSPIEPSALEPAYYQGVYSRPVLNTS
Strand | normalised bound fraction [ratio]
ATCTTCCCCCTCTTCCTTGCCCCACCAGCTCACCTTCCCGGGTTGTTTACTTTGAGCAAAGTAAACAAAGCCGGCATTCGTTAACCCTCTTCTGGCGCAAACTGCTGTTTACTTTGGATGAATCATGGTCCTTTGGCGACGCCAGGCTCCGGGAGAGCAAAGCACCGTGTCAGGGCCATGATCCGGGGTGGCC | 0.532
GAGAGCCCTGGAAGCTCAGAAGAGGCAAGAGGGGCCTACTTCTCCCTTGTTTGGGCTTTGTTTGCTAAATACCAATATTAGATTAGGCAACTCTGCAAACAAAACCAAGGCCTGGCCAGCTGCCCAGGGTGTTTAAAGTCCAAGACATGAAGGCAGGACGTGTGCCCGTGGACTTGCACACGCAAGCAGGCCG | 0.397
AAAGATTACACTTTTAAAAACTACTCTTTGATTTAAAAAATTAACTCTAAATGTATGAAAGTCTATTTTGAGTATTCAGAGCAGGTTACGGGCAAGATTACATAGTTCTGGGTACAGGGATAATTTAAGAATCAGATTTTTCTGTCATATATAACAATTTTTGAAACCTGCAAATCTGCGTGAGTTACAAGAT | -0.0702
TTTGAAATTTAGGAAAAGTTAATATGAATGAGAGAAAAATAACCAAAAAGAAATAGCAATTATTCCTTACTAATGTTATTTTTCTGTCTGCAAAGTAATCTTAGTAAAAGAAATTTTTCACTTTAAGTTATGAAAGTTGACACTATTATCTATAATTTTTACATGTGCCTCTATTATATGTCCTCTAGCCTTT | 0.00653
ATCTTCCCCCTCTTCCTTGCCCCACCAGCTCACCTTCCCTTGTGGTTAGCAGATAGGAAAATAAATAAAGCCGGCATTCGTTAACCCTCTTCTGGCGCAAACTGCTGTTTGCTCTGGATGAATCATGGTCCTTTGGCGACGCCAGGCTCCGGGAGAGCAAAGCACCGTGTCAGGGCCATGATCCGGGGTGGCC | 0.322

Series 3 — technique: protein-binding microarray; molecule type: double-stranded DNA, one strand shown; matrix: in vitro; tested at: 250 nM; setting: 60-bp whole probe; added: salmon DNA 0.4 mg/ml; reference: random background probes; reading: higher = stronger binding; shared flanks, not repeated: GCCTAGCAC … GTCTTGATTCGCTTGACGCTGCTG
Target: Interferon regulatory factor 5, full length, phosphomimetic (IRF5, Homo sapiens, UniProt Q13568-2, residues 1-514, K96S/S451D/S453D/S456D/S462D)
Strand | log fluorescence [z-score]
GACGAACTGGGGTCTCGAGACGTGCTA | -0.471
TCAATTTTCATTATTGCACTGTGCTAG | 2.59
TTACCTTTTCACTTTACACAGTGCTAG | 2.48
TCAGTTTCCATTTTCAGACTGTGCTAG | 2.64
TTAGGTTTCCTTTTCCGTTAGTGCTAG | 1.41
TCATATGTCATTTACATACTGTGCTAG | 0.316
TTAGGTCTCGGTTTCGATTAGTGCTAG | 7.79
GACGTACTGGACTATCGGGACGTGCTA | 0.718
AAGGTATTATTTATTGTAGCGTGCTAG | 0.376
ATGTCTTCCCCTCTCATTCCGTGCTAG | -0.0864
GACGGACTGGACACTGGGGACGTGCTA | -0.579
AAAAAAATCATTTTCTCTGTGTGCTAG | 1.38
TTAGATTTTAGTTTCGATTAGTGCTAG | 10.2
TCATCTGTTCTTTTCAGACTGTGCTAG | 0.302
CTCCCCCTCCCCCTCAGATCGTGCTAG | -0.69
TTTGGTATCGACTATCGGTTAGTGCTA | 8.92
TTACGTATCGACTATCGGTTAGTGCTA | 8.55
CTAGATTCCAGTTTCGATTAGTGCTAG | 9.82
TTAGTACTGGGTATCGGTTAGTGCTAG | 4.19

Series 4 — technique: RNA Bind-n-Seq; molecule type: RNA; matrix: in vitro; tested at: not given; reference: input RNA pool; reading: higher = stronger binding
Target: RING finger protein unkempt homolog, zinc fingers 1-6, GST-SBP tag (UNK, Homo sapiens, UniProt Q9C0B0, residues 30-357)
UniProt Q9C0B0, sequence (30-357, looked up): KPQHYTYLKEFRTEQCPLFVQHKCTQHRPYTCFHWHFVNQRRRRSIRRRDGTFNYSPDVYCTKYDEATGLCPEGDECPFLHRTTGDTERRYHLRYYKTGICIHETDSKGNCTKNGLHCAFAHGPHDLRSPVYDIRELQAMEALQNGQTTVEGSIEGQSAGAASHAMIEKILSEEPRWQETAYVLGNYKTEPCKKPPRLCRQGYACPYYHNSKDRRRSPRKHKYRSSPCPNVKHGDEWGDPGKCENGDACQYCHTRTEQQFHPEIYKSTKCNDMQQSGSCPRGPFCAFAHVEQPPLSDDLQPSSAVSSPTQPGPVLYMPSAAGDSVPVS
Setting: RNA with constant flanks, human and mouse sites, ends assumed
Shared flanks, not repeated: GGGAGUUCUACAGUCCGACGAUC … CAACAGAGGAUUGAGCAUCA
Strand | bound/input enrichment [ratio]
UUAUGUCUUCAGCUUCGGCAGGACAUAGUUGCAGGACGUCUGCCCUGUUCCUUUGCAACCUUAGCAUUAUUAGGUUCUUACACCAUCCAGUCUGAACUGGGAGACUACGACCCAGAACUC | 0.981
GACGACAAAAGAGUUGUACCUAAAGGAAAAGGAGAACAGAUUGCAAGGGAGCAUGGUAUUAGGUUUUUUGAGACUAGUGCAAAAGCAAAUAUAAACAUCGAAAAGGCGUUCCUCACGUUA | 2.04
CCAUGUUUGCCAAAGGCAAAGGCUCGGCGGUGCCCUCGGACGGGCAGGCUCGGGAAAAGUUAGCUUUAUACGUCUACGAAUAUUUACUGCACGUAGGAGCACAGAAAUCUGCACAGACCU | 0.19
UUUGCAGCUGAAAGAGAUGAGUAUGGAUCAUAUACAAUGAGUGAGAUAAAUAUUGUUGGCCGAAUUACACUAAAUCUUUGGAGAAUCAUGAGAAAUGAGGUGGCUCUAACUAACUACACC | 0.204
GAACCACUUGAAGAAAAUUGCGCUAAAGCCCUGACUUUAAGGAUACAUGAUUCUUUGAAUAAUAGCCUUCCAAUUGGCCUUGUGCCUACUAAUUCAACAAACACUGUCAUGGACCAAAAA | 0.292
AUAUGAUCUUCUGCUCUUCCCAGGUCCCUUUCUCCCGCUCCCCCACUUGCCCUUUGCUGGUAGUAGCCAUGCUCCUGUGCUCCUCAUCCGUGGGGACAGGGCUUGGAGCAGUCACCCUUU | 0.265
UAUAUCAGUAUGUUAAACUUUAUUGCCACAUUUAAAGGACUGUAUUUUCAUACUUUUUUGCAUUUUACCUUUCAUCUACCAAUCCAUGUGCAUUGGAUUGCACACUAAGAUGUAUUUUCU | 0.452
ACACCCCAGUGAGCAGUGAGUGAUUUUCCUUUAGUCACACGGUGGUUUUGCUUUGUAGUUAGUAGGUGAUGGAUAUAUAGGUCUUCAUCCUCCUUUAGGCUGUUUCUCUUCUUGUGUUUG | 3.92
